# Results of several laboratories.
# Compare with care: the assays were run in different laboratories. Several values in a cell are separate wells, animals, samples, runs or records. ± gives the spread as reported.
SMILES,assay,test system,setting,how to read,quantity,result
CN1CC(=O)O[C@H](Cc2ccccc2)C(=O)NCC(=O)N(C)CC(=O)O[C@H](Cc2ccccc2)C(=O)NCC1=O,,human plasma,"2 h, 37 °C",,remaining compound,67%
NC(=O)c1nc(F)c[nH]c1=O,UV-Vis spectrophotometry,supercritical CO2,"120 min, 318 K, 27 MPa, 872.04 kg/m^3",,solubility,1690 µg/mL
CC(C)Nc1nc(Cl)nc(NC(C)C)n1,LC-MS/MS,herbicide solution,"2 h, 23 °C, added: 365 nm UV exposure",,remaining amount,47.2 ± 22.9%
CS(=O)(=O)CCCn1c(Cn2c(=O)n(CC(F)(F)F)c3ccncc32)cc2cc(Cl)ccc21,,RSV-infected infants,"concentration not given, low dose cohorts",,patients with high MCH,0%
CC1(C)S[C@@H]2[C@H](NC(=O)[C@@H](C(=O)O)c3ccsc3)C(=O)N2[C@H]1C(=O)O,,"Sprague-Dawley rat, plasma","intravenous, 144 mg/kg",,t1/2,0.21 ± 0.01 h
CCCCCOc1ccc(-c2cc(-c3ccc(C(=O)N[C@H]4C[C@@H](O)[C@@H](O)NC(=O)[C@@H]5[C@@H](O)[C@@H](C)CN5C(=O)[C@H]([C@H](O)CC(N)=O)NC(=O)[C@H]([C@H](O)[C@@H](O)c5ccc(O)c(OS(=O)(=O)O)c5)NC(=O)[C@@H]5C[C@@H](O)CN5C(=O)[C@H]([C@@H](C)O)NC4=O)cc3)no2)cc1,,"preterm neonates, whole cohort, plasma","intravenous, 15 mg/kg/day, repeated dosing, mean",,Vdss,1.5 L
N#Cc1ccc(N2N=C3c4ccc(C(=O)N5CCC(O)CC5)nc4CC[C@@H]3[C@@H]2C2CCCC2)cc1Cl,,human,"oral, dose not given, added: itraconazole",relative to: without itraconazole,oral clearance reduction,51%
CSCC[C@@H]1NC(=O)[C@H](CC(=O)O)NC(=O)CNC(=O)[C@H](CCCNC(=N)N)NC(=O)[C@H](C)NC(=O)[C@H](CCC(=O)O)NC(=O)[C@H](CCCNC(=N)N)NC(=O)[C@@H]2CSSC[C@@H]3NC(=O)[C@H](CO)NC(=O)[C@H]([C@@H](C)O)NC(=O)[C@@H]4CCCN4C(=O)[C@H](C)NC(=O)[C@H](Cc4c[nH]c5ccccc45)NC(=O)[C@H](CC(=O)O)NC(=O)CNC(=O)[C@H](CCCNC(=N)N)NC(=O)CNC(=O)[C@H](CCC(N)=O)NC(=O)[C@@H]4CCCN4C(=O)[C@@H](NC(=O)CNC(=O)C(C)F)CSSC[C@H](NC(=O)CNC(=O)[C@H](C)NC(=O)[C@H](CC(C)C)NC(=O)[C@H](CSSC[C@@H](C(=O)NCC(N)=O)NC(=O)[C@H]([C@@H](C)O)NC(=O)[C@H](CCCNC(=N)N)NC(=O)[C@@H]4CCCN4C1=O)NC(=O)[C@H](CC(=O)O)NC(=O)[C@H](CO)NC(=O)[C@H](CC(=O)O)NC(=O)[C@H](CCC(N)=O)NC(=O)[C@H](CO)NC3=O)C(=O)N[C@@H](C(C)C)C(=O)N2 (some centres unmarked) [fluorine-18 labelled],,"nude mice U-87 MG xenograft, kidneys","intravenous, 2.5 h",,tissue uptake,1.1 ± 0.22 %ID/g
CCCCCCCC[N+](C)(C)C,ultrafiltration,human serum,,,unbound fraction in blood,0.284
Nc1nc(N)nc(N)n1,LC-MS/MS,"non-pregnant female rat, serum","oral, 1000 mg/kg/day, 10 days",,serum concentration,767 µg/mL and 268 µg/mL and 302 µg/mL and 170 µg/mL and 73.7 µg/mL
CC[C@H](C)[C@H](NC(=O)[C@H](CO)NC(=O)[C@H](C)NC(=O)[C@@H](NC(=O)CNC(=O)[C@H](CO)NC(=O)[C@@H](NC(=O)[C@@H](NC(=O)[C@H](Cc1c[nH]cn1)NC(=O)[C@@H]1CCCN1C(=O)[C@@H](NC(=O)[C@H](CC(C)C)NC(=O)[C@H](CO)NC(=O)[C@H](CC(C)C)NC(=O)[C@@H](N)Cc1ccccc1)[C@@H](C)CC)[C@@H](C)CC)C(C)C)C(C)C)C(=O)N[C@@H](C)C(=O)N[C@@H](CCCCN)C(=O)N[C@@H](Cc1c[nH]cn1)C(=O)N[C@@H](Cc1ccccc1)C(N)=O,UPLC-MS/MS,processed rat plasma in autosampler,"0.2 µg/mL, 8 h, 25 °C, post-preparative stability",,concentration found,0.183 µg/mL
CC(=O)N[C@H](CCCCNC(=O)C(C)F)C(=O)N[C@@H](CS)C(=O)N[C@@H](CS)C(=O)N[C@@H](CCC(=O)O)C(=O)N[C@@H](Cc1c[nH]cn1)C(=O)N[C@H](Cc1ccccc1)C(=O)N[C@@H](CCCNC(=N)N)C(=O)N[C@@H](Cc1c[nH]c2ccccc12)C(=O)N[C@@H](CS)C(=O)N[C@@H](CCCNC(=N)N)C(=O)N1CCC[C@H]1C(=O)N[C@H](C(N)=O)C(C)C (some centres unmarked) [fluorine-18 labelled],,"nude mice, A375M xenograft, lung","intravenous, 2 h",,tissue uptake,0.68 ± 0.1 %ID/g
Cc1cc(=O)[nH]c2c1NC(=O)c1cccnc1N2C1CC1,,"olive baboon (Papio anubis), non-pregnant, serum","oral, 10 mg/kg of nevirapine, solution, single dose",,AUC(0-8 h),13.2 ± 9.62 ng·h/mL
CC(C)C[C@H](NC(=O)[C@H](CC(=O)O)NC(=O)CNC(=O)[C@H](CCCNC(=N)N)NC(=O)[C@H](CC(C)C)NC(=O)[C@H](CC(N)=O)NC(=O)[C@@H]1CCCN1C(=O)[C@@H](NC(=O)[C@H](C)NC(=O)[C@H](CC(N)=O)NC(=O)CCOCCOCCOCCOCCOCCOCCOCCOCCOCCOCCOCCOCCOCCOCCOCCOCCOCCOCCOCCOCCOCCOCCOCCOCCOCCOCCOCCOCCNC(=O)CN1CCN(CC(=O)O)CCN(CC(=O)O)CC1)C(C)C)C(=O)N[C@@H](CCC(N)=O)C(=O)N[C@H](C(=O)N[C@@H](CC(C)C)C(=O)N[C@@H](C)C(=O)N[C@@H](CCC(N)=O)C(=O)N[C@@H](CCCNC(=N)N)C(=O)N[C@H](C(=O)N[C@@H](C)C(=O)N[C@@H](CCCNC(=N)N)C(=O)N[C@H](C(=O)NCCOCCOCCOCCOCCOCCOCCOCCOCCOCCOCCOCCOCCOCCOCCOCCOCCOCCOCCOCCOCCOCCOCCOCCOCCOCCOCCOCCOCCC(N)=O)[C@@H](C)O)C(C)C)C(C)C [fluorine-18 labelled],"biodistribution, radioactivity","female athymic nude mice, DX3puroβ6/DX3puro xenografts, kidney","intravenous, 0.175 nmol, 1 h",,tissue uptake,39 ± 10 %ID/g
O=C(CC(=O)c1ccccc1)c1ccccc1,,male Sprague-Dawley rat,"oral, 250 mg/kg, regular emulsion",,Tmax,3.33 ± 1.15 h
O[C@H]1CCCN[C@@H]1CCCn1cnc2c(Cl)c(Cl)ccc21,,"human, plasma","oral, 300 mg single dose, capsule, geometric mean",,AUC(0-inf),1530 ng·h/mL
CNC(=O)c1ccc(-c2cnn3ccc(C(=O)N(C)c4ccc(Cl)c(C(=O)OC)c4)cc23)cc1,,"rat, Wistar or Sprague Dawley, male, plasma, jugular vein (systemic)","oral, 100 mg/kg",,AUC,0.039 µM·h
CC[C@H](C)[C@H](NC(=O)[C@@H](N)CCCNC(=N)N)C(=O)N[C@H](C(=O)N1CCC[C@H]1C(=O)N[C@@H](C)C(N)=O)C(C)C,,"human, plasma","intravenous, 1 mg/kg, single dose, healthy volunteers",,AUC(0-t),323 ng·h/mL
[18F]CCOc1ccccc1OC(c1ccccc1)C1CNCCO1 (centres unmarked),,1-octanol/phosphate buffer,pH 7.4,,log P,2 to 2.47
Cc1cc(C(C#N)c2ccc(Cl)cc2)c(Cl)cc1NC(=O)c1cc(I)cc(I)c1O (centres unmarked),"HPLC, non-compartmental","Corriedale lambs, parasitized, plasma","subcutaneous, 5 mg/kg",,elimination half-life,382 h
CCc1cc(O)ccc1-c1ccc2c(-c3nc4c([nH]3)CN(C(C)C)[C@H](C(=O)N3CC(N(C)C)C3)C4)n[nH]c2c1,,"human, plasma","inhalation, single and multiple doses",,t_half,~1440 min
CN[C@@](C)(C[18F])C(=O)O,,"SCID mouse SK-OV-3 xenograft, blood","30 min, post injection",,tissue uptake,1.1 ± 0.3 %ID/g
[123I]c1cncc(OC[C@@H]2CCN2)c1,SPECT,"human, head of caudate nucleus","intravenous bolus, 9.1 mCi",relative to: tissue over plasma,tissue/plasma ratio,14.2

# For quick reference, copied from above:
SMILES,assay,test system,setting,how to read,quantity,result
CC(C)Nc1nc(Cl)nc(NC(C)C)n1,LC-MS/MS,herbicide solution,"2 h, 23 °C, added: 365 nm UV exposure",,remaining amount,47.2 ± 22.9%
